Published values collected from several papers.
Parts stem from different laboratories: compare values within a part only. Substitutions count along the parent as printed.
Sequence of UniProt Q13177 (whole entry, looked up): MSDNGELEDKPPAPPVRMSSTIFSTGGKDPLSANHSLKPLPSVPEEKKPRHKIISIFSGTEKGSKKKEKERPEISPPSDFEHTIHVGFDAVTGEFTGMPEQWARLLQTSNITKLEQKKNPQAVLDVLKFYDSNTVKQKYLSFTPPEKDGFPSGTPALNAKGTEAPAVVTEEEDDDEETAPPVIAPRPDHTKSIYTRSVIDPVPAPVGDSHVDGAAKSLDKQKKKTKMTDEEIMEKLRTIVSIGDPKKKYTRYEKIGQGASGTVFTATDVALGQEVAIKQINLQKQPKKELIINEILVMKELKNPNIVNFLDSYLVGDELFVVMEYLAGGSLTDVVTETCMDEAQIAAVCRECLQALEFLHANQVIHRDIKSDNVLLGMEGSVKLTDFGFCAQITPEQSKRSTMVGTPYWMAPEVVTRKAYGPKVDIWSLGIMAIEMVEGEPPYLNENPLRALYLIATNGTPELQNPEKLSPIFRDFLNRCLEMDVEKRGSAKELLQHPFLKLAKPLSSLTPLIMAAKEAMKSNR

Study 1
Target: DBP, bZIP domain (human)
Method: DHFR protein complementation
Medium: yeast
Setting: single substitutions, most at no-binding floor
Reference: wild-type JUN-FOS pair
Reading: higher = stronger binding
Quantity: binding fitness
Starting sequence: JUN, bZIP domain (human); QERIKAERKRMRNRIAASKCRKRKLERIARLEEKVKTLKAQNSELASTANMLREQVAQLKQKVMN; partner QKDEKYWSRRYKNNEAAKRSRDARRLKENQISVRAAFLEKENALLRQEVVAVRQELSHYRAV
E33T: -1.42 natural log
Q41P: -1.55 natural log
T48Q: -1.23 natural log
E44Y: -1.36 natural log
I28C: -1.5 natural log
K34S: -1.4 natural log
T37M: -1.49 natural log
K36P: -1.45 natural log

Study 2
Change: V118E
Target: ABI1, truncated, D143A, DHFR fusion (Arabidopsis thaliana)
Method: DHFR PCA, deep sequencing
Medium: yeast
Setting: methotrexate growth selection, single substitutions
Reference: wild-type fitted maximum
Reading: higher = stronger binding
Quantity: relative binding score
Starting sequence: PYL1, truncated, DHFR fusion (Arabidopsis thaliana); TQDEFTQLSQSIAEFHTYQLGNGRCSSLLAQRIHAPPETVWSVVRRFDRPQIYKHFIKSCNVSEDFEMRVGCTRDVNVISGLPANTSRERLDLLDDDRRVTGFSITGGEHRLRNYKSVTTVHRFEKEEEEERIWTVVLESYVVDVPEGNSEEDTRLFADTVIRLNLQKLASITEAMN
with: (+)-ABA 17 µM: 12.9%
with: (+)-ABA 0.0091 µM: -3.09%
with: (+)-ABA 4.8 µM: 0.445%
with: (+)-ABA 2500 µM: 27.9%
with: (+)-ABA 1.4 µM: 2.25%
with: (+)-ABA 0.032 µM: 1.97%

Study 3
Target: PABPC1L2, full length, GST fusion (mouse, UniProt A0ABA7IW68)
Method: RNAcompete
Form: RNA
Medium: in vitro
Concentration: 20 nM
Setting: 7-mer, probes averaged, single round
Reference: mean of 7-mers
Reading: higher = stronger binding
Quantity: 7-mer Z-score
Construct (chain): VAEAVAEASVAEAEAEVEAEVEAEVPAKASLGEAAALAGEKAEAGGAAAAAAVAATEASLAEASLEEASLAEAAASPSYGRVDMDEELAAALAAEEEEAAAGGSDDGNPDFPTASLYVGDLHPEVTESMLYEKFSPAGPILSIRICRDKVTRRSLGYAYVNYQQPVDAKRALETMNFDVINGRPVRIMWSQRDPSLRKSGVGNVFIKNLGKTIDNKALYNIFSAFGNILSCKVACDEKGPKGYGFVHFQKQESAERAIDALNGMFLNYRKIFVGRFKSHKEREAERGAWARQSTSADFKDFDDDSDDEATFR
UUGACCG: -0.115
AAGCCGU: -0.0518
ACUCGUA: -0.306
GGGGAGG: 0.534
GCACACA: -0.00108
GAAUCCU: -0.385
UUUUCAA: -0.278
UGUAAUG: -0.222

Other studies, line by line
COc1ccc(CNC(=O)Nc2ncc([N+](=O)[O-])s2)cc1
remaining activity (Serine/threonine-protein kinase PAK 2 (PAK2, Homo sapiens, UniProt Q13177); enzyme activity, inhibitor; 0.5 µM; reference: control): 102%
